Results from different studies.
Lines come from different studies, so protocols differ. Numbers after ± are the reported error.

`C1=NCCCN=Cc2ccc([nH]2)-c2nc3ccccc3nc2-c2ccc1[nH]2` gave a melting temperature of 82.8 °C (human ACTN3 291-bp linear dsDNA; high-resolution melt; 135 µM).
`CN1CCCNC(=O)c2cccc(c2)C(=O)NCCCN(C)CCCNc2cccc3c2C(=O)c2cccc(c2C3=O)NCCC1` has a selectivity ratio of 86 (telomeric G-quadruplex DNA; DNA binding, UV-Vis titration; reference: Ka telomeric G1 over double-stranded DNA).
`C1=[N+]2CCC[N+]3=Cc4ccc5[n]4[Au-]23[n]2c1ccc2-c1nc2ccccc2nc1-5.F[P-](F)(F)(F)(F)F` has a melting temperature of 84 °C (human ACTN3 291-bp linear dsDNA; high-resolution melt; 2.04 µM).
The inhibition of `Cn1ccc2cc(-n3c(=O)[nH]c4sc5c(c4c3=O)CCCC5)ccc21` is reported as 20% (rat P2Y receptor nonselective; radioligand binding; 10 µM).
For `C=CC(=O)N1[C@@H](c2ccc3c(c2)OCO3)c2[nH]c3ccccc3c2C[C@H]1C(=O)N1CCN(C)CC1`, the relative co-enrichment was 98% (human cyclin E1 wild type-3xFLAG:CDK2; co-IP with TMT proteomics, item: SRSF3; concentration not given, P84103; reference: wild type DMSO).
`CC(C)(O)c1ccn2c(-c3ccc(F)c(-c4ccc(F)cc4C#N)c3)cnc2c1F` has a surface expression of 2 ± 0.29 fold (GABAA receptor α1 P260L human; cell surface biotinylation; HEK-293T; 5 µM, 24 h, together with: hispidulin 10 µM; reference: DMSO).
`Fc1ccc(Nc2nc(NC3CCCCC3)c3cc(C(F)(F)F)ccc3n2)cc1F` gave a pIC50 of 6.7 (β2AR/β1AR ECL1/3 chimera; β-arrestin2 recruitment, antagonist, BRET; together with: isoprenaline 1 µM).
`CN1CCCNC(=O)CCC(=O)NCCCN(C)CCCNc2cccc3c2C(=O)c2cccc(c2C3=O)NCCC1` has a ΔTm of 2.8 ± 0.1 °C (telomeric G-quadruplex DNA; DNA thermal stabilisation, CD melting; concentration not given, pH 7.4, together with: 100 mM KCl).
`O=C(Nc1cccc(C(=O)N2CCC(c3nc(-c4ccccc4)n[nH]3)CC2)c1)c1ccccc1` — result for IC50: “no inhibition” (FSP1 L323A; resorufin formation, inhibitor; together with: NADH, resazurin).
For `CN(C)CCOc1cc(NC(=O)c2cccc(C(=O)Nc3cc(OCCN(C)C)c4ccccc4n3)n2)nc2ccccc12`, the ΔTm was 19.2 ± 0.8 K (c-kit1 G-quadruplex DNA; FRET melting; 1 µM, pH 7.4, together with: 60 mM potassium).
`c1ccc(-c2n[nH]cc2-c2ccnc3ccccc23)nc1` — result for “log2 fold change”: 0.1 (RCK2 (Candida albicans); kinase binding, MIB/MS competition; Candida albicans lysate; 1 µM; reference: DMSO).
With `C=CC(=O)Nc1cccc(Cn2ncc3cnc(Nc4cnn(CCOC)c4)nc32)c1` the binding was 8.5% (human ABL1(M351T)-phosphorylated; KINOMEscan; 100 nM; reference: control).
`CC[C@H]1OC(=O)[C@H](C)[C@@H](OC(=O)Cc2c(F)cccc2F)[C@H](C)[C@@H](O[C@@H]2O[C@H](C)C[C@H](N(C)C)[C@H]2O)[C@](C)(OC)C[C@@H](C)C(=O)[C@H](C)[C@@H](O)[C@]1(C)O` gave an IC50 of 180 nM (Escherichia coli ribosome; in vitro transcription-translation, inhibitor).
`O=C(O)C(Cc1c[nH]cn1)N1C(=O)c2ccc3c4ccc5c6c(ccc(c7ccc(c2c37)C1=O)c64)C(=O)N(CCN1CCCCC1)C5=O` (centres unmarked): “concentration for near-complete G-quadruplex formation” no less than 8 µM (human TERT promoter G-rich DNA; G-quadruplex induction, duplex-quadruplex competition, PAGE; pH 6).
`C1=[N+]2CCCC[N+]3=Cc4ccc5[n]4[Au-]23[n]2c1ccc2-c1nc2ccccc2nc1-5.F[P-](F)(F)(F)(F)F` gave a melting temperature of 87.2 °C (human ACTN3 291-bp linear dsDNA; high-resolution melt; 52 µM).
For `CC[C@H]1OC(=O)[C@H](C)[C@@H](OC(=O)Cc2cccc(Cl)c2)[C@H](C)[C@@H](O[C@@H]2O[C@H](C)C[C@H](N(C)C)[C@H]2O)[C@](C)(OC)C[C@@H](C)C(=O)[C@H](C)[C@@H](O)[C@]1(C)O`, the IC50 was 460 nM (Escherichia coli ribosome; in vitro transcription-translation, inhibitor).
The kcat of `CC(C)=CCC/C(C)=C/CC/C(C)=C/Cc1c(O)cc(CO)c(C=O)c1O` is reported as 0.001 s⁻¹ (StaI (Stachybotrys chartarum); substrate; 30 min, pH 7.0, 45 °C).
With `Fc1ccc(Nc2nc(NC3CCCCC3)c3ccccc3n2)cc1F` the maximal inhibition was -1.4% (β2AR/β1AR ECL1/3 chimera; β-arrestin2 recruitment, antagonist, BRET; reference: isoprenaline maximal response).
For `Cc1[nH]nc2c1N=C(c1ccccc1Cl)c1cnc(N3CCOCC3)cc1N2`, the inhibition was 75% (rolipram binding site, rat; radioligand binding; 10 µM).
`CSCc1cn(-c2cccc(C(=O)N3CCC(c4nc(-c5ccccc5)n[nH]4)CC3)c2)nn1`: IC50 “no inhibition” (FSP1 L323A; resorufin formation, inhibitor; together with: NADH, resazurin).
`CC[C@H]1OC(=O)[C@H](C)[C@@H](OC(=O)Cc2ccc(N)cc2)[C@H](C)[C@@H](O[C@@H]2O[C@H](C)C[C@H](N(C)C)[C@H]2O)[C@](C)(OC)C[C@@H](C)C(=O)[C@H](C)[C@@H](O)[C@]1(C)O` gave an IC50 of 210 nM (Escherichia coli ribosome; in vitro transcription-translation, inhibitor).
`CC1(C)C[N+]2=Cc3ccc4[n]3[Au-]23[n]2c(ccc2-c2nc5ccccc5nc2-4)C=[N+]3C1.F[P-](F)(F)(F)(F)F` gave a melting temperature of 83.1 °C (human ACTN3 291-bp linear dsDNA; high-resolution melt; 80.8 nM).
`Fc1ccc(Nc2nc(NC3CCCCC3)c3cc(Br)ccc3n2)cc1F` gave a pIC50 of 6.2 (β2AR/β1AR TM2 chimera; β-arrestin2 recruitment, antagonist, BRET; together with: isoprenaline 1 µM).
With `CN1CCCNC(=O)CC2(CCCCC2)CC(=O)NCCCN(C)CCCNc2cccc3c2C(=O)c2cccc(c2C3=O)NCCC1` the selectivity ratio was 243 (telomeric G-quadruplex DNA; DNA binding, UV-Vis titration; reference: Ka telomeric G1 over double-stranded DNA).
With `Nc1ncc(-c2cc(-c3cnn(CC(F)(F)F)c3)ncc2F)nc1C(=O)NC1CNCC(F)C1` (centres unmarked) the remaining binding was 86% (NEK5; KINOMEscan; 1 µM; reference: DMSO control).
With `CC[C@H]1OC(=O)[C@H](C)[C@@H](OC(=O)Cc2ccc(Cl)cc2)[C@H](C)[C@@H](O[C@@H]2O[C@H](C)C[C@H](N(C)C)[C@H]2O)[C@](C)(OC)C[C@@H](C)C(=O)[C@H](C)[C@@H](O)[C@]1(C)O` the IC50 was 520 nM (Escherichia coli ribosome; in vitro transcription-translation, inhibitor).

Excerpt of the above:
For `CN(C)CCOc1cc(NC(=O)c2cccc(C(=O)Nc3cc(OCCN(C)C)c4ccccc4n3)n2)nc2ccccc12`, the ΔTm was 19.2 ± 0.8 K (c-kit1 G-quadruplex DNA; FRET melting; 1 µM, pH 7.4, together with: 60 mM potassium).
`c1ccc(-c2n[nH]cc2-c2ccnc3ccccc23)nc1` — result for “log2 fold change”: 0.1 (RCK2 (Candida albicans); kinase binding, MIB/MS competition; Candida albicans lysate; 1 µM; reference: DMSO).
With `C=CC(=O)Nc1cccc(Cn2ncc3cnc(Nc4cnn(CCOC)c4)nc32)c1` the binding was 8.5% (human ABL1(M351T)-phosphorylated; KINOMEscan; 100 nM; reference: control).
